Assay results gathered from unrelated publications.
Compare with care: the assays were run in different laboratories. “And” joins repeats or separate records; there may be more than shown. ± gives the spread as reported.

`CC(C)[C@H](NC(=O)c1ccc2ccccc2n1)C(=O)N[C@@H](CC(=O)O)C(=O)COc1c(F)cccc1F` gave an inhibition of 25% (glioblastoma cells; caspase-3/7 activation, CellEvent fluorescence; 100 µM, with: MED2).
The inhibition of `Cc1cc(-c2ccccc2)c2c(n1)C1(CCCCC1)NC2=O` is reported as 85.4% (human erythrocytes; hypotonicity-induced hemolysis; 800 µg/mL, 1 h).
With `CCOCc1ccc(C=O)o1` the inhibition was 58.8% and > 54% (human sickle red blood cells; sickling; 2 mM, 2 h, 37 °C, hematocrit 20%, 4% oxygen).
For `CCn1c(-c2ccc(Br)cc2)cs/c1=N/N=C(\C)c1ccccn1`, the inhibition was 67.2% (HepG2; cell growth or viability, SRB; 100 µg/mL, 48 h).
The inhibition of `COc1ccc2c(c1)c(CC(=O)O)c(C)n2C(=O)c1ccc(Cl)cc1` is reported as 95.3% (human erythrocytes; hypotonicity-induced hemolysis; 600 µg/mL, 1 h).
`CCN1C(=O)C(C(C)=O)S/C1=N/N=C(\C)c1ccccn1` (centres unmarked) gave an inhibition of 59.3% (HepG2; cell growth or viability, SRB; 100 µg/mL, 48 h).
The inhibition of `NC1=NC(=S)NC12CCCCC2` is reported as 92.8% (human erythrocytes; hypotonicity-induced hemolysis; 400 µg/mL, 1 h).
With `CC(C)Oc1ccc(S(=O)(=O)c2ccc(Oc3cc(OCC(N)=O)c(C(=O)C(Cl)Cl)cc3[N+](=O)[O-])cc2)cc1` the inhibition was > 95% (NCI-H1975; cell growth or viability, MTT; 2.5 µM).
`O=C(Cc1ccc(C(F)(F)F)cc1)Nc1nc2ccccc2n1Cc1ccc(Br)cc1` has an inhibition of > 50% (MDA-MB-231-HRE-Luc; HIF reporter gene, inhibitor, HRE luciferase reporter; 10 µM, hypoxia; relative to: untreated).
`CCN(c1nc(N)c(C(=O)NC(=N)N)nc1Cl)C(C)C` has an inhibition of 75.1% (MCEC mouse; transfection reporter gene; 25 µg/mL, 1 h; relative to: vehicle).
For `C/C(=N\NC(N)=S)c1ccccn1`, the inhibition was 57.6% (HepG2; cell growth or viability, SRB; 100 µg/mL, 48 h).
For `O=C1NC2(CCCCC2)c2[nH]c(=S)nc(-c3ccccc3)c21`, the inhibition was 67.6% (human erythrocytes; hypotonicity-induced hemolysis; 100 µg/mL, 1 h).
With `COc1ccc(CC(=O)Nc2nc3ccccc3n2Cc2ccccc2)cc1` the inhibition was > 50% (MDA-MB-231-HRE-Luc; HIF reporter gene, inhibitor, HRE luciferase reporter; 10 µM, hypoxia; relative to: untreated).
With `CCCOCc1ccc(C=O)o1` the inhibition was 62.9% and > 54% (human sickle red blood cells; sickling; 2 mM, 2 h, 37 °C, hematocrit 20%, 4% oxygen).
`O=C(Cc1ccc(Br)cc1)Nc1nc2ccccc2n1Cc1ccc(Br)cc1` has an inhibition of > 50% (MDA-MB-231-HRE-Luc; HIF reporter gene, inhibitor, HRE luciferase reporter; 10 µM, hypoxia; relative to: untreated).
For `O=C1NC2(CCCCC2)c2nc3c(c(-c4ccccc4)c21)CCCC3`, the inhibition was 91.1% (human erythrocytes; hypotonicity-induced hemolysis; 800 µg/mL, 1 h).
For `CC(C)(C)OC(=O)OCc1ccc(C=O)o1`, the inhibition was 71.6 ± 0.1% (human sickle red blood cells; sickling; 2 mM, 2 h, 37 °C, hematocrit 20%, 4% oxygen).
The inhibition of `O=C1CCC(=O)C2(CCCCC2)N1` is reported as 69% (human erythrocytes; hypotonicity-induced hemolysis; 400 µg/mL, 1 h).
`C[C@@H](Oc1cc(-c2cnn(C3CCNCC3)c2)cnc1N)c1c(Cl)ccc(F)c1Cl` has an inhibition of 75.7% (KARPAS-299; cell growth or viability, MTT; 2 µg/mL).
The inhibition of `COc1cc(/C=C/C(=O)N2CCC(Cc3ccccc3)CC2)ccc1OC1CCCCC1` is reported as 38.1% (BV-2; NO release, inhibitor, Griess; 5 µM, LPS-stimulated).

For quick reference, copied from above:
`CCN1C(=O)C(C(C)=O)S/C1=N/N=C(\C)c1ccccn1` (centres unmarked) gave an inhibition of 59.3% (HepG2; cell growth or viability, SRB; 100 µg/mL, 48 h).
`CCN(c1nc(N)c(C(=O)NC(=N)N)nc1Cl)C(C)C` has an inhibition of 75.1% (MCEC mouse; transfection reporter gene; 25 µg/mL, 1 h; relative to: vehicle).
